Measured values pooled from the literature.
Compare with care: the assays were run in different laboratories. Numbers after ± are the reported error.
Sequence of UniProt P14842 (whole entry, looked up): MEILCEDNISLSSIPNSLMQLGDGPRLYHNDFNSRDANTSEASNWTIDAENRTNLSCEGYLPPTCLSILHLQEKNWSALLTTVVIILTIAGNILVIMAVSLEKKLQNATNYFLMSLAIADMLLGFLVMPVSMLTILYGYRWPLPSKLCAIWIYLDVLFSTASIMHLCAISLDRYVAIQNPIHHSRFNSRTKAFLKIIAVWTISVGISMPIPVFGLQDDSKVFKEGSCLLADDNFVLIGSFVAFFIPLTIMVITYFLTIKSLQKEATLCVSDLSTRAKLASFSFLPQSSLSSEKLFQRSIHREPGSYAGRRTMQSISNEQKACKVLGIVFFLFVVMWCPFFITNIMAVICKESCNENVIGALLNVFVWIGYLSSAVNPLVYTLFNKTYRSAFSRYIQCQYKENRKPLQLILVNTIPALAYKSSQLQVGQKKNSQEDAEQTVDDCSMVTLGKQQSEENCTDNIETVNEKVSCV

SMILES = Cc1ccc2c(c1)/C(=N/NC(=O)N/N=C1\C(=O)Nc3ccc(C)cc31)C(=O)N2; tested on = Influenza A virus H3N2; test = viral replication, MTS; system = MDCK; measurement = EC50; result = > 20 µM
SMILES = c1ccc(CCN2CCCCC2)cc1; tested on = 5-hydroxytryptamine receptor 2A (Rattus norvegicus, UniProt P14842); test = ligand displacement, radioligand; measurement = Ki; result = > 10 µM
SMILES = Nc1ncnc2c1ncn2CCOCP(=O)(OCCCCCCCCC(O)CO)OCCCCCCCCC(O)CO (stereo not drawn); tested on = influenza A virus H3N2; test = viral replication; system = MDCK; measurement = EC50; result = > 32.4 µM
SMILES = C/C(O)=C(\C#N)C(=O)Nc1ccc(C(F)(F)F)cc1; tested on = human coronavirus 229E; test = viral replication, qPCR, measured: viral RNA; system = MRC-5; setting = 48 h; measurement = EC50; result = 42.1 µM
SMILES = NC(=O)c1ncn([C@@H]2O[C@H](CO)[C@@H](O)[C@H]2O)n1; tested on = Influenza A virus H3N2; test = viral replication, MTS; system = MDCK; measurement = EC50; result = 2 ± 0.2 µM
SMILES = NC(=O)c1ncn([C@@H]2O[C@H](CO)[C@@H](O)[C@H]2O)n1; tested on = influenza A virus; test = viral replication, MTS viability; system = MDCK, H1N1; measurement = EC50; result = 10.5 ± 0.65 µM
SMILES = N=C(N)NCCC[C@@H]1NC(=O)[C@H](CCCCNC(=O)[C@H](CC(=O)O)NC(=O)[C@H](CC(=O)O)NC(=O)[C@H](CC(=O)O)NC(=O)CC[C@H](NC(=O)CCOCCOCCOCCOCCNC(=O)c2ccc(NN)nc2)C(=O)N[C@@H](CC(=O)O)C(=O)N[C@@H](CC(=O)O)C(=O)N[C@@H](CC(=O)O)C(=O)NCCCC[C@@H]2NC(=O)[C@@H](Cc3ccccc3)NC(=O)[C@H](CC(=O)O)NC(=O)CNC(=O)[C@H](CCCNC(=N)N)NC2=O)NC(=O)[C@@H](Cc2ccccc2)NC(=O)[C@H](CC(=O)O)NC(=O)CNC1=O [technetium-99m labelled]; test = γ-counting; system = female athymic nude mice, U-87 MG xenograft, heart; setting = intravenous, 0.5 h; measurement = tissue uptake; result = 2.36 ± 0.24 %ID/g
SMILES = CCCCCCS(=O)(=O)N[C@H]1C(=O)N[C@@H]2Cc3ccc(c(Cl)c3)Oc3cc4cc(c3O)Oc3ccc(cc3Cl)[C@@H](O[C@@H]3O[C@H](CO)[C@@H](O)[C@H](O)[C@H]3NC(C)=O)[C@H]3NC(=O)[C@H](NC(O)[C@@H]4NC(=O)[C@@H](NC2=O)c2cc(O)cc(c2)Oc2cc1ccc2O)c1ccc(O)c(c1)-c1c(O)cc(O)cc1[C@H](C(=O)O)NC3=O (stereo partly drawn); tested on = human coronavirus 229E; test = viral replication; system = HEL; setting = 120 h; measurement = EC50; result = ~2 µM
SMILES = CNC(C)Cc1ccc2c(c1)OCO2 (racemic); test = visual analog scale, measured: Stimulated; system = human; setting = oral, 0.75 mg/kg, mean over session, unit not given; how to read = reference: pre-dose baseline; measurement = mood rating; result = 19.2
SMILES = Cc1cc2c(c(=S)[nH]1)C(=O)O/C2=C\c1ccc(C)s1; tested on = influenza A H1N1, H3N2, influenza B; test = cytopathic effect; system = MDCK, A/Puerto Rico/8/34, A/Hong Kong/8/68, B/Lee/40; setting = range over three viruses; measurement = EC50; result = < 20 µM
SMILES = C[C@H]1CNCCc2ccc(Cl)cc21; system = male Sprague-Dawley rat, plasma; setting = subcutaneous, 0.5 mg/kg, 0 h, given alone; measurement = plasma concentration; result = 0 ng/mL
SMILES = Cc1oncc1C(=O)Nc1ccc(C(F)(F)F)cc1; tested on = human coronavirus 229E; test = viral replication, qPCR, measured: viral RNA; system = MRC-5; setting = 48 h; measurement = EC50; result = 42.7 µM
SMILES = Cc1ccsc1/C=C1\OC(=O)c2c1cc(C)n(C)c2=S; tested on = influenza A H1N1, H3N2, influenza B; test = cytopathic effect; system = MDCK, A/Puerto Rico/8/34, A/Hong Kong/8/68, B/Lee/40; setting = range over three viruses; measurement = EC50; result = < 20 µM
SMILES = O=C(N/N=C1\C(=O)Nc2ccccc21)N/N=C1\C(=O)Nc2ccccc21; tested on = influenza A virus; test = cytopathic effect, MTS; system = MDCK, H1N1; measurement = EC50; result = > 100 µM
SMILES = CN[C@@](C)(C[18F])C(=O)O; tested on = SK-OV-3 tumour model; system = host not given, lung; setting = 15 min, tumour-bearing; measurement = tracer uptake; result = 2.2 %ID/g
SMILES = O=C(N/N=C1\C(=O)Nc2ccc(Cl)cc21)N/N=C1\C(=O)Nc2ccc(Cl)cc21; tested on = influenza A virus; test = cytopathic effect, MTS; system = MDCK, H1N1; measurement = EC50; result = > 100 µM
SMILES = NC(=O)c1ncn([C@@H]2O[C@H](CO)[C@@H](O)[C@H]2O)n1; tested on = Influenza A virus; test = viral cytopathic effect, MTS; system = MDCK, H3N2; measurement = EC50; result = 9.3 µM
SMILES = CC(C)c1ccc2c(c1)CC[C@H]1[C@](C)(CN)CCC[C@]21C; tested on = C8161.Cl 9 melanoma; test = cell viability, MTS; setting = 48 h; measurement = IC50; result = 6.13 ± 0.53 µM
SMILES = NC12CC3CC(CC(C3)C1)C2; tested on = Influenza A virus H3N2; test = viral replication, MTS; system = MDCK; measurement = EC50; result = 0.8 µM
SMILES = N=C(N)NCCC[C@@H]1NC(=O)[C@H](CCCCNC(=O)CNC(=O)CNC(=O)CNC(=O)CC[C@H](NC(=O)CCOCCOCCOCCOCCNC(=O)c2ccc(NN)nc2)C(=O)NCC(=O)NCC(=O)NCC(=O)NCCCC[C@@H]2NC(=O)[C@@H](Cc3ccccc3)NC(=O)[C@H](CC(=O)O)NC(=O)CNC(=O)[C@H](CCCNC(=N)N)NC2=O)NC(=O)[C@@H](Cc2ccccc2)NC(=O)[C@H](CC(=O)O)NC(=O)CNC1=O [technetium-99m labelled]; test = γ-counting; system = female athymic nude mice, U-87 MG xenograft, eyes; setting = intravenous, 1 h; measurement = tissue uptake; result = 1.59 ± 0.17 %ID/g
SMILES = Cc1ncc2n1-c1ccc(Cl)cc1C(c1ccccc1F)=NC2; system = healthy men, plasma; setting = oral, 7.5 mg, day 26, LS mean, with: 14 days post amenamevir; measurement = AUC(0-inf); result = 122 ng·h/mL
SMILES = CCC(CC)O[C@@H]1C=C(C(=O)O)C[C@H](N)[C@H]1NC(C)=O; tested on = Influenza A virus; test = viral cytopathic effect, MTS; system = MDCK, H3N2; measurement = EC50; result = 5.2 µM
SMILES = CCC(CC)O[C@@H]1C=C(C(=O)O)C[C@H](N)[C@H]1NC(C)=O; tested on = influenza A virus; test = viral replication, MTS viability; system = MDCK, H1N1; measurement = EC50; result = 13.6 ± 0.1 µM
SMILES = Cc1cc2c(c(=S)[nH]1)C(=O)O/C2=C\c1cc2ccccc2s1; tested on = influenza A H1N1, H3N2, influenza B; test = cytopathic effect; system = MDCK, A/Puerto Rico/8/34, A/Hong Kong/8/68, B/Lee/40; setting = range over three viruses; measurement = EC50; result = < 20 µM

Excerpt of the above:
SMILES = CCCCCCS(=O)(=O)N[C@H]1C(=O)N[C@@H]2Cc3ccc(c(Cl)c3)Oc3cc4cc(c3O)Oc3ccc(cc3Cl)[C@@H](O[C@@H]3O[C@H](CO)[C@@H](O)[C@H](O)[C@H]3NC(C)=O)[C@H]3NC(=O)[C@H](NC(O)[C@@H]4NC(=O)[C@@H](NC2=O)c2cc(O)cc(c2)Oc2cc1ccc2O)c1ccc(O)c(c1)-c1c(O)cc(O)cc1[C@H](C(=O)O)NC3=O (stereo partly drawn); tested on = human coronavirus 229E; test = viral replication; system = HEL; setting = 120 h; measurement = EC50; result = ~2 µM
